Assay results of several laboratories.
Parts stem from different laboratories: compare values within a part only. Substitutions count along the parent as printed.

Study 1
Target: CCNE2, cyclin fold, Cln2 fusion (human)
Technique: yeast growth competition, sequencing
Sample: yeast
Setting: strong parent motif
Relative to: not given
Direction: higher = stronger binding
Endpoint: normalised enrichment score
Starting sequence: PKN2 docking peptide (human); VSAVRKLDFSDTM; partner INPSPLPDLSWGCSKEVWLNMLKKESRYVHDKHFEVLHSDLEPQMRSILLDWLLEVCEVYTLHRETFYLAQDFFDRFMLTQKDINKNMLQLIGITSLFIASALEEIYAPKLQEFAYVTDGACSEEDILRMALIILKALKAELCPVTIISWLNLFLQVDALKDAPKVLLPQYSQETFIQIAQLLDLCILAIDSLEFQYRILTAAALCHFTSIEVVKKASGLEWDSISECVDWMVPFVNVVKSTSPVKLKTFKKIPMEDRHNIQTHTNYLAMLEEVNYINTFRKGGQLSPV
Substitution = S10N; result = 4.46
Substitution = D11T; result = 4.9
Substitution = S2M; result = 3.53
Substitution = R5V; result = 0.18
Substitution = V4H; result = 0.526
Substitution = D11F; result = 4.38
Substitution = L7K; result = 0.108
Substitution = F9R; result = 0.218
Substitution = R5H; result = -0.033
Substitution = S2Y; result = 3.5
Substitution = S2V; result = 2.26
Substitution = A3L; result = 1.19
Substitution = T12C; result = 4.9
Substitution = S10T; result = 4.44
Substitution = D8T; result = 3.65
Substitution = L7H; result = 0.234
Substitution = A3C; result = 5.06
Substitution = S2P; result = 3.76
Substitution = L7S; result = 0.193
Substitution = S10Q; result = 3.51
Substitution = R5C; result = 0.845
Substitution = T12K; result = 5.12

Study 2
Target: Interferon regulatory factor 5, full length, phosphomimetic (IRF5, Homo sapiens, UniProt Q13568-2, residues 1-514, K96S/S451D/S453D/S456D/S462D)
Technique: protein-binding microarray
Form: double-stranded DNA, one strand shown
Sample: in vitro
Tested at: 250 nM
Setting: 60-bp whole probe
Added: salmon DNA 0.4 mg/ml
Relative to: random background probes
Direction: higher = stronger binding
Endpoint: log fluorescence
Shared flanks, not repeated: GCCTAGCAC … GTCTTGATTCGCTTGACGCTGCTG
Sequence = TGCTTCTAACAGAGGAGGTTGTGCTAG; result = -0.0574 z-score
Sequence = TCAAAGCTTCCTCTCTGACTGTGCTAG; result = -0.042 z-score
Sequence = GACGGTATCGGGACTGGGTACGTGCTA; result = 1.22 z-score
Sequence = TCAGATCTCAGACTGGATTAGTGCTAG; result = -0.191 z-score
Sequence = GGCTGTTTGATCTTGATCCTGTGCTAG; result = -0.312 z-score
Sequence = TTAGGTTTGGGTATCGGTTAGTGCTAG; result = 4.61 z-score
Sequence = TCATTTTACTTTCTGAAACTGTGCTAG; result = 4.2 z-score
Sequence = TTAGATATCAGTTTTGATTAGTGCTAG; result = 2.3 z-score
Sequence = TCACCTTTGAAAGTTGTTACTGTGCTA; result = 0.755 z-score
Sequence = GACCTTCACCTCTCTGTCCCCGTGCTA; result = -0.171 z-score
Sequence = CTAGGTCTCCTTATCCTTTAGTGCTAG; result = -0.158 z-score
Sequence = TTGCTTCCCAATTCTCTTTTCGTGCTA; result = 1.18 z-score
Sequence = GACGGTTTCGACCATCGGGACGTGCTA; result = 5 z-score
Sequence = GACGAACAGGGGTATCGAGACGTGCTA; result = 0.12 z-score
Sequence = TCATCCCTAATTCTGATACTGTGCTAG; result = 0.257 z-score
Sequence = TTAGGACTGGGACTGGGTTCGTGCTAG; result = -0.62 z-score
Sequence = TCATTTTTCTACTTCTCACTGTGCTAG; result = 1.54 z-score
Sequence = TTAGATATCCGGTATCGATTAGTGCTA; result = 4.89 z-score
Sequence = TTAGATTTGAGTTCCGATTAGTGCTAG; result = 0.862 z-score
Sequence = GAAGGACTGGGACTGGGGACGTGCTAG; result = -0.572 z-score
Sequence = CTGCATTACAGCTATTTTTAGGTGCTA; result = 0.338 z-score
Sequence = GACGGTATCATTATCCTGACGTGCTAG; result = 1 z-score
Sequence = TCAATTCTCATTTCCAAACTGTGCTAG; result = 1.14 z-score
Sequence = TTATGTTTCGGGACTGGGTTAGTGCTA; result = 6.35 z-score
Sequence = GCCGGTCTCGGTTTCGGGACGTGCTAG; result = 3.9 z-score

Study 3
Target: CEP164, C-terminal peptide (human)
Technique: DHFR complementation, deep sequencing
Sample: yeast
Setting: single substitutions, model-inferred values
Relative to: wild type
Direction: higher = weaker binding
Endpoint: binding free energy change
Starting sequence: PDZK1, PDZ domain 2 (human); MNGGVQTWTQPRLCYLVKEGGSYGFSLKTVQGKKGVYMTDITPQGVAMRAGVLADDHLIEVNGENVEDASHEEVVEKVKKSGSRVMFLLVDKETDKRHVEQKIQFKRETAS; partner HNRVKVYRF
Substitution = A50H; result = 0.435 kcal/mol
Substitution = F87D; result = 1.5 kcal/mol
Substitution = R107I; result = -0.114 kcal/mol
Substitution = K92Y; result = 0.0329 kcal/mol
Substitution = G51W; result = 0.487 kcal/mol
Substitution = K18G; result = 0.836 kcal/mol
Substitution = K106G; result = -0.202 kcal/mol
Substitution = G35W; result = 0.0842 kcal/mol
Substitution = E64R; result = 0.279 kcal/mol
Substitution = E76G; result = 0.13 kcal/mol
Substitution = Q31L; result = -0.124 kcal/mol
Substitution = W8A; result = -0.16 kcal/mol
Substitution = R107E; result = -0.192 kcal/mol
Substitution = R49W; result = -0.263 kcal/mol
Substitution = S83H; result = 0.0127 kcal/mol

Study 4
Target: Histone acetyltransferase KAT6A, both winged helices, GST fusion (KAT6A, Homo sapiens, UniProt Q92794, residues 1-181)
Technique: protein binding microarray
Form: double-stranded DNA, one strand shown
Sample: in vitro
Tested at: not given
Setting: 8-mer, flanks averaged, mean of 2 arrays, mostly near background
Relative to: not given
Direction: higher = stronger binding
Endpoint: E-score
Construct (chain): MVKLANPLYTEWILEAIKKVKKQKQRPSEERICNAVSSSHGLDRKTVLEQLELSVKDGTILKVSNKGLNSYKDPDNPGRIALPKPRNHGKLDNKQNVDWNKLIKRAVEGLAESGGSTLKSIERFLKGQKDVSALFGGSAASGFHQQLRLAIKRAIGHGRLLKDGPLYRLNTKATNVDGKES
Sequence = AGCGGCAA; result = 0.284
Sequence = ACTGATAT; result = -0.0294
Sequence = ATTCGGAC; result = 0.152
Sequence = ACAGGCAA; result = -0.162
Sequence = CCCCGCAA; result = 0.192
Sequence = ACTCGAAA; result = -0.127
Sequence = CATGCTGA; result = -0.18
Sequence = GAATGCGC; result = 0.304
Sequence = AGCTTAGC; result = -0.0532
Sequence = AACACGGA; result = 0.241
Sequence = AATTCAGT; result = -0.0695
Sequence = ACCCTCGA; result = -0.195
Sequence = CCCAAGAC; result = -0.176
Sequence = CATTAGAC; result = 0.0757
Sequence = CAACCTAA; result = -0.188
Sequence = GCAGAAAA; result = -0.000475
Sequence = ATGCGCAG; result = 0.251
Sequence = CAGCAGGC; result = -0.0154
Sequence = ATAGGTCG; result = -0.0252
Sequence = TTGCACAA; result = -0.0275
Sequence = GAGTTCAA; result = -0.152
Sequence = ATCGACGC; result = 0.195
Sequence = GCTCGTGA; result = -0.0589
Sequence = CTTAGTTC; result = -0.0475
Sequence = CTTAATAA; result = -0.025

Study 5
Target: CEBPD, bZIP domain (human)
Technique: DHFR protein complementation
Sample: yeast
Setting: single substitutions, most at no-binding floor
Relative to: wild-type JUN-FOS pair
Direction: higher = stronger binding
Endpoint: binding fitness
Starting sequence: JUN, bZIP domain (human); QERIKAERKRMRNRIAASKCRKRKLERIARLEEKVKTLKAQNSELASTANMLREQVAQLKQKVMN; partner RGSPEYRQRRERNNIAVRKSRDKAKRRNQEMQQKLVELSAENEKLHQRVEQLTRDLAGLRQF
Substitution = L38E; result = -1.47 natural log
Substitution = V56Y; result = -1.48 natural log
Substitution = E33H; result = -1.42 natural log
Substitution = S43V; result = -1.35 natural log
Substitution = M51F; result = -1.28 natural log
Substitution = N42K; result = -1.43 natural log
Substitution = R53P; result = -1.41 natural log
Substitution = K34H; result = -1.42 natural log
Substitution = T37P; result = -1.49 natural log
Substitution = K39Q; result = -1.29 natural log
Substitution = A49L; result = -1.18 natural log
Substitution = E44H; result = -1.31 natural log
Substitution = A49W; result = -1.32 natural log
Substitution = A40M; result = -1.3 natural log
Substitution = I28P; result = -1.32 natural log

Study 6
Target: Sal-like protein 4, full length isoform A (SALL4, Homo sapiens, UniProt Q9UJQ4, residues 1-1053)
Chain of UniProt Q9UJQ4 (whole entry, looked up): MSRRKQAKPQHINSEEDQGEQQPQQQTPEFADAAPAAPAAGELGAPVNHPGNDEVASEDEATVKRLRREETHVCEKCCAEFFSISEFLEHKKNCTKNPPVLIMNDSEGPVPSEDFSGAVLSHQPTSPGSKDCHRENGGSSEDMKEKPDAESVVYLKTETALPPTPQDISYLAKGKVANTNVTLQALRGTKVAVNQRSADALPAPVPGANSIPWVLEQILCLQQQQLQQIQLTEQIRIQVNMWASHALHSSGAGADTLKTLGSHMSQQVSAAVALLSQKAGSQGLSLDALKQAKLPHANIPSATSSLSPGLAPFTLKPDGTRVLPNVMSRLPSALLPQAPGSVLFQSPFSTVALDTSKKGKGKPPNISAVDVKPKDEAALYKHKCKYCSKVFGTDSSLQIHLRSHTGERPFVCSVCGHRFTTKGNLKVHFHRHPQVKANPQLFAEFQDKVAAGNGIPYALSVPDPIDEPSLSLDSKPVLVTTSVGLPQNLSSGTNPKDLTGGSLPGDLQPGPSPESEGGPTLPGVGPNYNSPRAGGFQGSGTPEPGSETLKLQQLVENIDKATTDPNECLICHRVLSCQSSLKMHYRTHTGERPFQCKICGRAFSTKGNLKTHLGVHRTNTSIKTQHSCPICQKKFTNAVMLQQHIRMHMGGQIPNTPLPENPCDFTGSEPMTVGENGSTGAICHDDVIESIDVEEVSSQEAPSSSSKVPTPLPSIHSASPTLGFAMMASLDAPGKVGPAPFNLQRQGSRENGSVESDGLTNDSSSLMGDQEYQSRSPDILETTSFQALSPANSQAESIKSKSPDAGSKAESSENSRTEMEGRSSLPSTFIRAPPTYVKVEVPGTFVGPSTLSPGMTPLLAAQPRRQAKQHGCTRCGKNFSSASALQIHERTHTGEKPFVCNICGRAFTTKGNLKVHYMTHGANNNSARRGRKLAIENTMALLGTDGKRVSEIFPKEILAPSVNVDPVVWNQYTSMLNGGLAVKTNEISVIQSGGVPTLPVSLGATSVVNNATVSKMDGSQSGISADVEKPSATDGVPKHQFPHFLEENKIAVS
Technique: universal PBM
Form: double-stranded DNA, one strand shown
Sample: in vitro
Tested at: 600 nM
Setting: 8-mer, flanks averaged, mean of replicates
Direction: higher = stronger binding
Endpoint: E-score
Sequence = CGCAAGAC; result = -0.0565
Sequence = CGACCCAC; result = -0.19
Sequence = AGAGCCAT; result = -0.0705
Sequence = GACCGTGA; result = -0.129
Sequence = CGGTCCTA; result = -0.26
Sequence = GTGAACGA; result = 0.0595
Sequence = CCGGGGTA; result = -0.137
Sequence = CAGGAAAG; result = -0.0613
Sequence = ACCAGGGC; result = -0.328
Sequence = CCAGTCCC; result = -0.262
Sequence = TCTGGCAA; result = 5.5e-05
Sequence = AAACATCC; result = 0.0649
Sequence = ACCATGAC; result = -0.148
Sequence = ACACCTTG; result = -0.00258
Sequence = CCGCAAGG; result = -0.259
Sequence = ATGTCACG; result = 0.0801
Sequence = CGGAATGA; result = -0.0408
Sequence = CCGCGGAC; result = -0.4
Sequence = CGAATCTA; result = 0.0883
Sequence = ATGGTCTG; result = 0.0336
Sequence = GGCCCGCA; result = -0.28
Sequence = AGGCTCTA; result = -0.154
Sequence = AATGCCGA; result = -0.0379
Sequence = CAGTCAGG; result = -0.147
Sequence = TGAACGAA; result = 0.0867

Repeated from above (study 3):
Substitution = K18G; result = 0.836 kcal/mol
Substitution = A50H; result = 0.435 kcal/mol
Substitution = K106G; result = -0.202 kcal/mol
Substitution = E76G; result = 0.13 kcal/mol
Substitution = F87D; result = 1.5 kcal/mol
Substitution = W8A; result = -0.16 kcal/mol
Substitution = G51W; result = 0.487 kcal/mol
